Assay results of several laboratories.
Lines come from different studies, so protocols differ. “And” joins repeats or separate records; there may be more than shown. ± marks the error that the study gave.

SMILES	assay	system	setting	scale	quantity	result
N=C(N)NCCC[C@H](NC(=O)[C@@H]1CCCN1C(=O)[C@@H]1CSSCCC(=O)N[C@]2(CC[C@@H](c3ccccc3)CC2)C(=O)N[C@@H](Cc2ccccc2)C(=O)N[C@@H](CCC(N)=O)C(=O)N[C@@H](CC(N)=O)C(=O)N1)C(=O)NCC(N)=O	–	conscious male rat	subcutaneous, dose not given	reference: AVP 465 IU/mg	antidiuretic activity	45 IU/mg
NC(=O)C[C@H](N)C(=O)N1CCC[C@H]1C(=O)NCC(=O)NCC(=O)O	diketopiperazine formation, Arrhenius plot, ESI-MS	1-propanol	70, 80, 90 °C, 0.5% acetic acid	–	activation energy	78 ± 2 kJ/mol
Cc1cc(O)c(C=O)c2c1C(=O)Oc1c(CO)c(O)c3c(c1O2)C(O)OC3=O (centres unmarked)	mating test	rat, male, streptozotocin-induced diabetes	5 mg/kg	–	mating success	58.3%
Cc1ccc(C(=O)Nc2ccc(CP(=O)(O)O)cc2CP(=O)(O)O)cc1NC(=O)c1cccc(NC(=O)Nc2cccc(C(=O)Nc3cc(C(=O)Nc4ccc(CP(=O)(O)O)cc4CP(=O)(O)O)ccc3C)c2)c1	prothrombin time	normal human plasma	1.5-fold increase	–	concentration for PT increase	> 750 µM
CCOC(=O)C(Cc1cccc(O)c1)OC(=O)C=Cc1ccc(O)c(O)c1C=Cc1ccc(O)c(O)c1 (centres unmarked)	measured: CK, CK-MB, AST, LDH	transgelin knockout mice, isoproterenol ischaemia	10 mg/kg	–	cardiac injury markers	no effect
CCCC[C@H](NC(=O)[C@@H](NC(=O)[C@H](CC(=O)O)NC(=O)[C@H](CCC(N)=O)NC(=O)[C@H](CC(C)C)NC(=O)[C@H](CC(C)C)NC(=O)[C@H](CCCN)NC(=O)[C@H](CCCNC(=N)N)NC(=O)[C@H](C)NC(=O)[C@H](CO)NC(=O)[C@H](CC(C)C)NC(=O)[C@H](CCC(N)=O)NC(=O)[C@H](CC)NC(=O)[C@H](CC(C)C)NC(=O)[C@@H](NC(=O)[C@H](CCCN)NC(=O)[C@H](CCCNC(=N)N)NC(=O)[C@H](Cc1ccc(O)cc1)NC(=O)[C@H](CO)NC(=O)[C@H](CCC(N)=O)NC(=O)[C@@H](NC(=O)[C@H](Cc1ccccc1)NC(=O)[C@@H](NC(=O)[C@H](C)NC(=O)[C@H](CC(=O)O)NC(=O)[C@@H](C)NC(=O)[C@H](Cc1ccc(O)cc1)NC)[C@@H](C)CC)[C@@H](C)O)C(C)C)[C@@H](C)CC)C(=O)N[C@@H](CC(=O)O)C(=O)NCCCCNC(=N)N	GH release	male rat, serum	subcutaneous, dose not given, 30 min	reference: GHRH(1-29)NH2	relative potency	134
NS(=O)(=O)NCC(F)(F)c1ccccc1F	protection from seizures	Frings audiogenic seizure mouse	intraperitoneal	–	ED50	19 ± 2 mg/kg
O=C1/C(=C/c2ccccc2)Oc2cc(O)c(-c3ccc(O)c(O)c3)c(O)c21	ABTS scavenging, absorbance	–	–	–	EC50	1.06 mM
COc1c2c(cc3oc(COC4OC(CO)C(O)C(O)C4O)cc(=O)c13)OC(C(C)(C)O)C2 (centres unmarked)	analgesia	mouse	oral, 2 mg/kg, 0.5 h	–	hot plate latency	11.8 ± 1.5 s
CCCC[C@H](NC(=O)[C@@H](NC(=O)[C@H](CC(=O)O)NC(=O)[C@H](CCC(N)=O)NC(=O)[C@H](CC(C)C)NC(=O)[C@H](CC(C)C)NC(=O)[C@H](CCCN)NC(=O)[C@H](CCCNC(=N)N)NC(=O)[C@H](C)NC(=O)[C@H](CO)NC(=O)[C@H](CC(C)C)NC(=O)[C@H](CCC(N)=O)NC(=O)[C@H](CC)NC(=O)[C@H](CC(C)C)NC(=O)[C@@H](NC(=O)[C@H](CCCN)NC(=O)[C@H](CCCNC(=N)N)NC(=O)[C@H](Cc1ccc(O)cc1)NC(=O)[C@H](CO)NC(=O)[C@H](CCC(N)=O)NC(=O)[C@@H](NC(=O)[C@H](Cc1ccccc1)NC(=O)[C@@H](NC(=O)[C@H](C)NC(=O)[C@H](CC(=O)O)NC(=O)[C@@H](C)NC(=O)CCc1ccc(O)cc1)[C@@H](C)CC)[C@@H](C)O)C(C)C)[C@@H](C)CC)C(=O)N[C@@H](CC(=O)O)C(=O)N[C@H](CCCNC(=N)N)C(=O)NC	GH release	rat, male, serum	subcutaneous, 3 µg/kg, 30 min	reference: reference GHRH agonist JI-38	relative potency	2.27
O=C1c2c(O)cc3oc4cc(O)c(O)cc4c3c2OC1Cc1ccccc1 (centres unmarked)	ABTS scavenging, absorbance	–	–	–	EC50	1.03 mM
CCCC[C@H](NC(=O)[C@@H](NC(=O)[C@H](CC(=O)O)NC(=O)[C@H](CCC(N)=O)NC(=O)[C@H](CC(C)C)NC(=O)[C@H](CC(C)C)NC(=O)[C@H](CCCN)NC(=O)[C@H](CCCNC(=N)N)NC(=O)[C@H](C)NC(=O)[C@H](CO)NC(=O)[C@H](CC(C)C)NC(=O)[C@H](CCC(N)=O)NC(=O)[C@H](CC)NC(=O)[C@H](CC(C)C)NC(=O)[C@@H](NC(=O)[C@H](CCCN)NC(=O)[C@H](CCCNC(=N)N)NC(=O)[C@H](Cc1ccc(O)cc1)NC(=O)[C@H](CO)NC(=O)[C@H](CCC(N)=O)NC(=O)[C@@H](NC(=O)[C@H](Cc1ccccc1)NC(=O)[C@@H](NC(=O)[C@H](C)NC(=O)[C@H](CC(=O)O)NC(=O)[C@@H](C)NC(=O)[C@H](Cc1ccc(O)cc1)NC)[C@@H](C)CC)[C@@H](C)O)C(C)C)[C@@H](C)CC)C(=O)N[C@@H](CC(=O)O)C(=O)N[C@@H](CCCNC(=N)N)C(=O)NCCCCC(N)=O	GH release	rat, male, serum	subcutaneous, 3 µg/kg, 15 min	reference: reference GHRH agonist JI-38	relative potency	1.5 and 1.47
Cc1nc(C)c(C=[N+]([O-])C(C)(C)C)nc1C	immunofluorescence	MPTP-treated mice, dopaminergic neurons	dose not given	reference: sham	PGC-1α level	63%
Cc1ncc2c(n1)CN(C(=O)Nc1nc(-c3cccs3)ccc1N)C2	immunofluorescence	wild type mouse, hippocampal CA1	dose not given, chronic treatment	–	PSD95 level	no effect
[2H]C([2H])([2H])C(c1cc2nnc(-c3cc(F)ccc3F)n2nc1OCc1ncnn1C)(C([2H])([2H])[2H])C([2H])([2H])[2H]	–	amygdala-kindled Wistar rats, amygdala	oral, 6 mg/kg, 2 h before stimulation	reference: baseline	afterdischarge duration change	-46%
BP(=O)(OP(=O)([O-])OC[C@H]1O[C@@H](n2c[n+](C)c3c(O)nc(N)nc32)[C@H](O)[C@@H]1O)OP(=O)(O)OC[C@H]1O[C@@H](n2cnc3c(=O)[nH]c(N)nc32)[C@H](O)[C@@H]1O (some centres unmarked)	cap-dependent translation	rabbit reticulocyte lysate	pre-incubated in lysate	reference: m7GpppG over compound	IC50 ratio	23 fold
Cc1nc2c(cnn2C(C)C)cc1C(=O)NCc1ccc(C(C)O)c(C)n1 (centres unmarked)	larval locomotion	Drosophila melanogaster Tip60 RNAi larvae	oral in food	–	effective concentration	10 nM
CCCCSc1nnc(-c2ccccc2)o1	H2O2 scavenging	–	–	–	IC50	90.1 ± 2.2 µM
COc1ccc2c(c1)c(CC(=O)OCC(=O)OC(C)(C)C)c(C)n2C(=O)c1ccc(Cl)cc1	hot plate test	BALB/c mice	100 mg/kg, 30 min	–	latency of nociceptive response	16 ± 1.02 s
Cc1ccccc1-c1cc(N2CCN(C(=O)CCC(=O)O)CC2)ccc1N(C)C(=O)C(C)(C)c1cc(C(F)(F)F)cc(C(F)(F)F)c1	mechanical allodynia, antagonist, von Frey test	hNK1R-407 mice	intrathecal, 5 µL, 100 nM, with: capsaicin	–	duration of inhibition	≥ 8 h
CCCC[C@H](NC(=O)[C@@H](NC(=O)[C@H](CC(=O)O)NC(=O)[C@H](CCC(N)=O)NC(=O)[C@H](CC(C)C)NC(=O)[C@H](CC(C)C)NC(=O)[C@H](CCCN)NC(=O)[C@H](CCCNC(=N)N)NC(=O)[C@H](C)NC(=O)[C@H](CO)NC(=O)[C@H](CC(C)C)NC(=O)[C@H](CCC(N)=O)NC(=O)[C@H](CC)NC(=O)[C@H](CC(C)C)NC(=O)[C@@H](NC(=O)[C@H](CCCN)NC(=O)[C@H](CCCNC(=N)N)NC(=O)[C@H](Cc1ccc(O)cc1)NC(=O)[C@H](CO)NC(=O)[C@H](CC(N)=O)NC(=O)[C@@H](NC(=O)[C@H](Cc1ccccc1)NC(=O)[C@@H](NC(=O)[C@H](C)NC(=O)[C@H](CC(=O)O)NC(=O)[C@@H](C)NC(=O)[C@H](Cc1ccc(O)cc1)NC)[C@@H](C)CC)[C@@H](C)O)C(C)C)[C@@H](C)CC)C(=O)N[C@@H](CC(=O)O)C(=O)N[C@@H](CCCNC(=N)N)C(=O)NCC	GH release	male rat, serum	subcutaneous, dose not given, 15 min	reference: GHRH(1-29)NH2	relative potency	71.2
CCCCCCCCOP(=O)(O)Oc1c2c(c(OP(=O)(O)OCCCCCCCC)c3c1C1CC3c3cc4c(cc31)C1CC4c3ccccc31)C1CC2c2cc3c(cc21)C1CC3c2ccccc21	–	liposomes	30 min	–	dye leakage	< 50%
CCCC[C@H](NC(=O)[C@@H](NC(=O)[C@H](CC(=O)O)NC(=O)[C@H](CCC(N)=O)NC(=O)[C@H](CC(C)C)NC(=O)[C@H](CC(C)C)NC(=O)[C@H](CCCN)NC(=O)[C@H](CCCNC(=N)N)NC(=O)[C@H](C)NC(=O)[C@H](CO)NC(=O)[C@H](CC(C)C)NC(=O)[C@H](CCC(N)=O)NC(=O)[C@H](CC)NC(=O)[C@H](CC(C)C)NC(=O)[C@@H](NC(=O)[C@H](CCCN)NC(=O)[C@H](CCCNC(=N)N)NC(=O)[C@H](Cc1ccc(O)cc1)NC(=O)[C@H](CO)NC(=O)[C@H](CC(N)=O)NC(=O)[C@@H](NC(=O)[C@H](Cc1ccccc1)NC(=O)[C@@H](NC(=O)[C@H](C)NC(=O)[C@H](CC(=O)O)NC(=O)[C@@H](CC)NC(=O)CCc1ccc(O)cc1)[C@@H](C)CC)[C@@H](C)O)C(C)C)[C@@H](C)CC)C(=O)N[C@@H](CO)C(=O)N[C@@H](CCCNC(=N)N)C(=O)NCCCC(N)=O	GH release	rat, male, serum	subcutaneous, 3 µg/kg, 15 min	reference: reference GHRH agonist JI-38	relative potency	0.83
CC[C@H]1[C@@H](O)[C@@H]2[C@H](CC[C@]3(C)[C@@H]([C@H](C)CCOS(=O)(=O)[O-])CC[C@@H]23)[C@@]2(C)CC[C@@H](O)C[C@@H]12.[Na+]	–	ob/ob NASH mouse model	oral, 10 mg/kg once daily, before treatment, baseline of 8 week study	–	body weight	49.4 ± 1.3 g
CCCC[C@H](NC(=O)[C@@H](NC(=O)[C@H](CC(=O)O)NC(=O)[C@H](CCC(N)=O)NC(=O)[C@H](CC(C)C)NC(=O)[C@H](CC(C)C)NC(=O)[C@H](CCCN)NC(=O)[C@H](CCCNC(=N)N)NC(=O)[C@H](C)NC(=O)[C@H](CO)NC(=O)[C@H](CC(C)C)NC(=O)[C@H](CCC(N)=O)NC(=O)[C@H](CC)NC(=O)[C@H](CC(C)C)NC(=O)[C@@H](NC(=O)[C@H](CCCN)NC(=O)[C@H](CCCNC(=N)N)NC(=O)[C@H](Cc1ccc(O)cc1)NC(=O)[C@H](CO)NC(=O)[C@@H](NC(=O)[C@@H](NC(=O)[C@H](Cc1ccccc1)NC(=O)[C@@H](NC(=O)[C@H](C)NC(=O)[C@H](CC(=O)O)NC(=O)[C@@H](C)NC(=O)[C@H](Cc1ccc(O)cc1)NC)[C@@H](C)CC)[C@@H](C)O)[C@@H](C)O)C(C)C)[C@@H](C)CC)C(=O)N[C@@H](CC(=O)O)C(=O)N[C@@H](CCCNC(=N)N)C(=O)NC	GH release	male rat, serum	subcutaneous, dose not given, 30 min	reference: GHRH(1-29)NH2	relative potency	363
O=C(/C=C/c1ccc(O)c(O)c1)OCCCC[P+](c1ccccc1)(c1ccccc1)c1ccccc1	DCFDA fluorescence	energized rat liver mitochondria	concentration not given	–	H2O2 level	decreased

For quick reference, copied from above:
SMILES	assay	system	setting	scale	quantity	result
CCCC[C@H](NC(=O)[C@@H](NC(=O)[C@H](CC(=O)O)NC(=O)[C@H](CCC(N)=O)NC(=O)[C@H](CC(C)C)NC(=O)[C@H](CC(C)C)NC(=O)[C@H](CCCN)NC(=O)[C@H](CCCNC(=N)N)NC(=O)[C@H](C)NC(=O)[C@H](CO)NC(=O)[C@H](CC(C)C)NC(=O)[C@H](CCC(N)=O)NC(=O)[C@H](CC)NC(=O)[C@H](CC(C)C)NC(=O)[C@@H](NC(=O)[C@H](CCCN)NC(=O)[C@H](CCCNC(=N)N)NC(=O)[C@H](Cc1ccc(O)cc1)NC(=O)[C@H](CO)NC(=O)[C@H](CCC(N)=O)NC(=O)[C@@H](NC(=O)[C@H](Cc1ccccc1)NC(=O)[C@@H](NC(=O)[C@H](C)NC(=O)[C@H](CC(=O)O)NC(=O)[C@@H](C)NC(=O)[C@H](Cc1ccc(O)cc1)NC)[C@@H](C)CC)[C@@H](C)O)C(C)C)[C@@H](C)CC)C(=O)N[C@@H](CC(=O)O)C(=O)N[C@@H](CCCNC(=N)N)C(=O)NCCCCC(N)=O	GH release	rat, male, serum	subcutaneous, 3 µg/kg, 15 min	reference: reference GHRH agonist JI-38	relative potency	1.5 and 1.47
CCCC[C@H](NC(=O)[C@@H](NC(=O)[C@H](CC(=O)O)NC(=O)[C@H](CCC(N)=O)NC(=O)[C@H](CC(C)C)NC(=O)[C@H](CC(C)C)NC(=O)[C@H](CCCN)NC(=O)[C@H](CCCNC(=N)N)NC(=O)[C@H](C)NC(=O)[C@H](CO)NC(=O)[C@H](CC(C)C)NC(=O)[C@H](CCC(N)=O)NC(=O)[C@H](CC)NC(=O)[C@H](CC(C)C)NC(=O)[C@@H](NC(=O)[C@H](CCCN)NC(=O)[C@H](CCCNC(=N)N)NC(=O)[C@H](Cc1ccc(O)cc1)NC(=O)[C@H](CO)NC(=O)[C@H](CCC(N)=O)NC(=O)[C@@H](NC(=O)[C@H](Cc1ccccc1)NC(=O)[C@@H](NC(=O)[C@H](C)NC(=O)[C@H](CC(=O)O)NC(=O)[C@@H](C)NC(=O)CCc1ccc(O)cc1)[C@@H](C)CC)[C@@H](C)O)C(C)C)[C@@H](C)CC)C(=O)N[C@@H](CC(=O)O)C(=O)N[C@H](CCCNC(=N)N)C(=O)NC	GH release	rat, male, serum	subcutaneous, 3 µg/kg, 30 min	reference: reference GHRH agonist JI-38	relative potency	2.27
Cc1nc2c(cnn2C(C)C)cc1C(=O)NCc1ccc(C(C)O)c(C)n1 (centres unmarked)	larval locomotion	Drosophila melanogaster Tip60 RNAi larvae	oral in food	–	effective concentration	10 nM
